Published values gathered from unrelated publications.
A part holds a random share of what one study measured. “And” joins repeats or separate records; there may be more than shown.
UniProt Q14012, sequence (whole entry, looked up): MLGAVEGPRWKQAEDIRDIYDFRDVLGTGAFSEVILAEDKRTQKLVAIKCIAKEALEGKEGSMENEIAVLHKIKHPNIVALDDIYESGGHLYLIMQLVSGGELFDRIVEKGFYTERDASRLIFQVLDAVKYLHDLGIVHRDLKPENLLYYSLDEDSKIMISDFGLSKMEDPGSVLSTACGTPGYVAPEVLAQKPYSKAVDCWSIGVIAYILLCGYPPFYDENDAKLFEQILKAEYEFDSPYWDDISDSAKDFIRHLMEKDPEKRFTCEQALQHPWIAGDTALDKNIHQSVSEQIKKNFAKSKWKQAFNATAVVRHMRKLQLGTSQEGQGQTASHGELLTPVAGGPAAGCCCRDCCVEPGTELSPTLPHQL
UniProt Q04759, sequence (whole entry, looked up): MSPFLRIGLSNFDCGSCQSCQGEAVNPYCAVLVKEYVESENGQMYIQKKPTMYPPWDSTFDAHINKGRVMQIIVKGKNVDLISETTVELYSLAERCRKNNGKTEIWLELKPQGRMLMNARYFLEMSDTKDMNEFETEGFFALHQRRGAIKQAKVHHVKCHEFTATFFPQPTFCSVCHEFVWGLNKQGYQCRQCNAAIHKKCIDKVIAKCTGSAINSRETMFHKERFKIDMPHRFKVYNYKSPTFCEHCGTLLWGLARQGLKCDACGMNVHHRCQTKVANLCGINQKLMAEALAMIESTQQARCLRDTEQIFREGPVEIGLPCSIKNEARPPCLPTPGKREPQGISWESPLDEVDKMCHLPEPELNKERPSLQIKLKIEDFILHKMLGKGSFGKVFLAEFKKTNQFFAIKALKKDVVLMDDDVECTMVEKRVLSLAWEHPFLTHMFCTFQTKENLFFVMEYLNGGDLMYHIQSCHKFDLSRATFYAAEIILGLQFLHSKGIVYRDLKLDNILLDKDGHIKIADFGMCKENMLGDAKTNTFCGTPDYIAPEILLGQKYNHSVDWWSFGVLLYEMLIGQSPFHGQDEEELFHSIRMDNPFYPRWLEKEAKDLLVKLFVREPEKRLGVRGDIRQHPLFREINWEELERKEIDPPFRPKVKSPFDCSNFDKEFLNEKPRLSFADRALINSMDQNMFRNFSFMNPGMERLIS
UniProt Q06418, sequence (whole entry, looked up): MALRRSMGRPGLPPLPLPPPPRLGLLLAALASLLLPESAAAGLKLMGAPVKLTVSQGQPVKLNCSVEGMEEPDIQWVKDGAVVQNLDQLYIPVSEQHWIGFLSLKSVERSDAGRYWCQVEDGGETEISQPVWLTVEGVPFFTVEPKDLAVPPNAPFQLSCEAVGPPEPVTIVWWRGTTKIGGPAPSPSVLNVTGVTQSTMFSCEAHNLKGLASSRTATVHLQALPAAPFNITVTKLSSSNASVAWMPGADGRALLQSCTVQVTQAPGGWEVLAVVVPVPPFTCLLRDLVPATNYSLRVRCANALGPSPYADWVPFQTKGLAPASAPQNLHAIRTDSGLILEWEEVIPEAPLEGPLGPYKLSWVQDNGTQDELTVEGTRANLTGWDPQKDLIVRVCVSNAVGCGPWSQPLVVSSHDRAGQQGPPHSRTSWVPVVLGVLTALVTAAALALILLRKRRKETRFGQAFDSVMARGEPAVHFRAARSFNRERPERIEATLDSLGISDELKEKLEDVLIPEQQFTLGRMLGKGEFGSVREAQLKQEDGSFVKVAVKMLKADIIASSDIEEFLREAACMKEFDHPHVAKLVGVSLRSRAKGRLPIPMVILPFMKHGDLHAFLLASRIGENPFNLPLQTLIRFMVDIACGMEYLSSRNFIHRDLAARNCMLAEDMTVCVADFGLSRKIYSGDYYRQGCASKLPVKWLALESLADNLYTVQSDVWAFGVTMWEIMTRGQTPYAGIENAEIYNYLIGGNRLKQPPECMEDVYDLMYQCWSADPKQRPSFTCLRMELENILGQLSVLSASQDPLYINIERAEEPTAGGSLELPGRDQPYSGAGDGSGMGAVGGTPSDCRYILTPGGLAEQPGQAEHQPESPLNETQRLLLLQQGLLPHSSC
UniProt P48730, sequence (whole entry, looked up): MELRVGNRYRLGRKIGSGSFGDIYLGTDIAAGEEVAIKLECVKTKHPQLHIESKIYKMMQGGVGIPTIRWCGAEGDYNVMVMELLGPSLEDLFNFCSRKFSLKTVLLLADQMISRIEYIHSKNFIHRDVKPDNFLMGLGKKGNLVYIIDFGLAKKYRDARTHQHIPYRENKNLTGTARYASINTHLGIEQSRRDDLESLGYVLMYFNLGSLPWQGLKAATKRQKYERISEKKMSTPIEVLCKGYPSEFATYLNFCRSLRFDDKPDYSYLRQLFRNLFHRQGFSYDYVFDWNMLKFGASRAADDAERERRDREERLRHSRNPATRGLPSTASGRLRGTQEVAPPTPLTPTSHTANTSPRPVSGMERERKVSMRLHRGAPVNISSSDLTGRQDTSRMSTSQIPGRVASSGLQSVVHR

Study 1 — read-out: cell-free assay; technique: competition with immobilised ligand; tested at: 1 µM; quantity: remaining binding
SMILES: CCS(=O)(=O)c1cc2cc(C[C@](O)(CC(C)(C)c3ccc(F)cc3C(N)=O)C(F)(F)F)[nH]c2cn1
Serine/threonine-protein kinase LATS1 (LATS1, Homo sapiens, UniProt O95835): 98%
Receptor-interacting serine/threonine-protein kinase 4 (RIPK4, Homo sapiens, UniProt P57078): 93%
Activin receptor type-1B (ACVR1B, Homo sapiens, UniProt P36896): 100%
Macrophage colony-stimulating factor 1 receptor, autoinhibited (CSF1R, Homo sapiens, UniProt P07333): 100%
Protein kinase C theta type (PRKCQ, Homo sapiens, UniProt Q04759): 87%
Mitogen-activated protein kinase kinase kinase 3 (MAP3K3, Homo sapiens, UniProt Q99759): 92%
Phosphatidylinositol 4-phosphate 5-kinase type-1 gamma (PIP5K1C, Homo sapiens, UniProt O60331): 100%
Casein kinase II subunit alpha (CSNK2A1, Homo sapiens, UniProt P68400): 100%
Myosin-IIIb (MYO3B, Homo sapiens, UniProt Q8WXR4): 100%
Homeodomain-interacting protein kinase 3 (HIPK3, Homo sapiens, UniProt Q9H422): 100%
Aurora kinase B (AURKB, Homo sapiens, UniProt Q96GD4): 92%
Serine/threonine-protein kinase 38 (STK38, Homo sapiens, UniProt Q15208): 91%
Bone morphogenetic protein receptor type-1A (BMPR1A, Homo sapiens, UniProt P36894): 100%
Epidermal growth factor receptor (EGFR, Homo sapiens, UniProt P00533, del747-750/T751S): 100%
Serine/threonine-protein kinase Nek3 (NEK3, Homo sapiens, UniProt P51956): 100%

Study 2 — Compound: O=c1cc(N2CCOCC2)oc2c(-c3ccccc3)cccc12; read-out: enzyme activity; action: inhibitor; tested at: 0.5 µM; baseline: control; quantity: remaining activity
Calcium/calmodulin-dependent protein kinase kinase 1 (CAMKK1, Homo sapiens, UniProt Q8N5S9): 105%
Ribosomal protein S6 kinase alpha-3 (RPS6KA3, Homo sapiens, UniProt P51812): 98.1%
Ephrin type-A receptor 2 (EPHA2, Homo sapiens, UniProt P29317): 104%
Tyrosine-protein kinase JAK1 (JAK1, Homo sapiens, UniProt P23458): 108%
Serine/threonine-protein kinase PAK 1 (PAK1, Homo sapiens, UniProt Q13153): 97.8%
Serine/threonine-protein kinase PAK 6 (PAK6, Homo sapiens, UniProt Q9NQU5): 115%
Casein kinase I isoform epsilon (CSNK1E, Homo sapiens, UniProt P49674): 103%
Tyrosine-protein kinase receptor TYRO3 (TYRO3, Homo sapiens, UniProt Q06418): 107%
Protein kinase C theta type (PRKCQ, Homo sapiens, UniProt Q04759): 112%
Dual specificity protein kinase CLK1 (CLK1, Homo sapiens, UniProt P49759): 112%
Muscle, skeletal receptor tyrosine-protein kinase (MUSK, Homo sapiens, UniProt O15146): 102%
Serine/threonine-protein kinase Sgk2 (SGK2, Homo sapiens, UniProt Q9HBY8): 97%
Cyclin-dependent kinase 2, with cyclin E (CDK2, Homo sapiens, UniProt P24941): 93%
Dual specificity protein kinase CLK2 (CLK2, Homo sapiens, UniProt P49760): 100%
Tyrosine-protein kinase Tec (TEC, Homo sapiens, UniProt P42680): 107%
Ephrin type-A receptor 6 (EPHA6, Homo sapiens, UniProt Q9UF33): 87%
Casein kinase I isoform delta (CSNK1D, Homo sapiens, UniProt P48730): 100%
Serine/threonine-protein kinase SIK2 (SIK2, Homo sapiens, UniProt Q9H0K1): 96.8%
SRSF protein kinase 1 (SRPK1, Homo sapiens, UniProt Q96SB4): 104%
Mitogen-activated protein kinase kinase kinase 20 (MAP3K20, Homo sapiens, UniProt Q9NYL2): 94.2%
Insulin-like growth factor 1 receptor (IGF1R, Homo sapiens, UniProt P08069): 102%
Calcium/calmodulin-dependent protein kinase type 1 (CAMK1, Homo sapiens, UniProt Q14012): 96.7%

Study 3 — read-out: enzyme activity; action: inhibitor; tested at: 77 µM; baseline: untreated; quantity: remaining activity
Target: DNA polymerase theta, ATPase domain (POLQ, Homo sapiens, UniProt O75417)
UniProt O75417, sequence (whole entry, unmodified, looked up): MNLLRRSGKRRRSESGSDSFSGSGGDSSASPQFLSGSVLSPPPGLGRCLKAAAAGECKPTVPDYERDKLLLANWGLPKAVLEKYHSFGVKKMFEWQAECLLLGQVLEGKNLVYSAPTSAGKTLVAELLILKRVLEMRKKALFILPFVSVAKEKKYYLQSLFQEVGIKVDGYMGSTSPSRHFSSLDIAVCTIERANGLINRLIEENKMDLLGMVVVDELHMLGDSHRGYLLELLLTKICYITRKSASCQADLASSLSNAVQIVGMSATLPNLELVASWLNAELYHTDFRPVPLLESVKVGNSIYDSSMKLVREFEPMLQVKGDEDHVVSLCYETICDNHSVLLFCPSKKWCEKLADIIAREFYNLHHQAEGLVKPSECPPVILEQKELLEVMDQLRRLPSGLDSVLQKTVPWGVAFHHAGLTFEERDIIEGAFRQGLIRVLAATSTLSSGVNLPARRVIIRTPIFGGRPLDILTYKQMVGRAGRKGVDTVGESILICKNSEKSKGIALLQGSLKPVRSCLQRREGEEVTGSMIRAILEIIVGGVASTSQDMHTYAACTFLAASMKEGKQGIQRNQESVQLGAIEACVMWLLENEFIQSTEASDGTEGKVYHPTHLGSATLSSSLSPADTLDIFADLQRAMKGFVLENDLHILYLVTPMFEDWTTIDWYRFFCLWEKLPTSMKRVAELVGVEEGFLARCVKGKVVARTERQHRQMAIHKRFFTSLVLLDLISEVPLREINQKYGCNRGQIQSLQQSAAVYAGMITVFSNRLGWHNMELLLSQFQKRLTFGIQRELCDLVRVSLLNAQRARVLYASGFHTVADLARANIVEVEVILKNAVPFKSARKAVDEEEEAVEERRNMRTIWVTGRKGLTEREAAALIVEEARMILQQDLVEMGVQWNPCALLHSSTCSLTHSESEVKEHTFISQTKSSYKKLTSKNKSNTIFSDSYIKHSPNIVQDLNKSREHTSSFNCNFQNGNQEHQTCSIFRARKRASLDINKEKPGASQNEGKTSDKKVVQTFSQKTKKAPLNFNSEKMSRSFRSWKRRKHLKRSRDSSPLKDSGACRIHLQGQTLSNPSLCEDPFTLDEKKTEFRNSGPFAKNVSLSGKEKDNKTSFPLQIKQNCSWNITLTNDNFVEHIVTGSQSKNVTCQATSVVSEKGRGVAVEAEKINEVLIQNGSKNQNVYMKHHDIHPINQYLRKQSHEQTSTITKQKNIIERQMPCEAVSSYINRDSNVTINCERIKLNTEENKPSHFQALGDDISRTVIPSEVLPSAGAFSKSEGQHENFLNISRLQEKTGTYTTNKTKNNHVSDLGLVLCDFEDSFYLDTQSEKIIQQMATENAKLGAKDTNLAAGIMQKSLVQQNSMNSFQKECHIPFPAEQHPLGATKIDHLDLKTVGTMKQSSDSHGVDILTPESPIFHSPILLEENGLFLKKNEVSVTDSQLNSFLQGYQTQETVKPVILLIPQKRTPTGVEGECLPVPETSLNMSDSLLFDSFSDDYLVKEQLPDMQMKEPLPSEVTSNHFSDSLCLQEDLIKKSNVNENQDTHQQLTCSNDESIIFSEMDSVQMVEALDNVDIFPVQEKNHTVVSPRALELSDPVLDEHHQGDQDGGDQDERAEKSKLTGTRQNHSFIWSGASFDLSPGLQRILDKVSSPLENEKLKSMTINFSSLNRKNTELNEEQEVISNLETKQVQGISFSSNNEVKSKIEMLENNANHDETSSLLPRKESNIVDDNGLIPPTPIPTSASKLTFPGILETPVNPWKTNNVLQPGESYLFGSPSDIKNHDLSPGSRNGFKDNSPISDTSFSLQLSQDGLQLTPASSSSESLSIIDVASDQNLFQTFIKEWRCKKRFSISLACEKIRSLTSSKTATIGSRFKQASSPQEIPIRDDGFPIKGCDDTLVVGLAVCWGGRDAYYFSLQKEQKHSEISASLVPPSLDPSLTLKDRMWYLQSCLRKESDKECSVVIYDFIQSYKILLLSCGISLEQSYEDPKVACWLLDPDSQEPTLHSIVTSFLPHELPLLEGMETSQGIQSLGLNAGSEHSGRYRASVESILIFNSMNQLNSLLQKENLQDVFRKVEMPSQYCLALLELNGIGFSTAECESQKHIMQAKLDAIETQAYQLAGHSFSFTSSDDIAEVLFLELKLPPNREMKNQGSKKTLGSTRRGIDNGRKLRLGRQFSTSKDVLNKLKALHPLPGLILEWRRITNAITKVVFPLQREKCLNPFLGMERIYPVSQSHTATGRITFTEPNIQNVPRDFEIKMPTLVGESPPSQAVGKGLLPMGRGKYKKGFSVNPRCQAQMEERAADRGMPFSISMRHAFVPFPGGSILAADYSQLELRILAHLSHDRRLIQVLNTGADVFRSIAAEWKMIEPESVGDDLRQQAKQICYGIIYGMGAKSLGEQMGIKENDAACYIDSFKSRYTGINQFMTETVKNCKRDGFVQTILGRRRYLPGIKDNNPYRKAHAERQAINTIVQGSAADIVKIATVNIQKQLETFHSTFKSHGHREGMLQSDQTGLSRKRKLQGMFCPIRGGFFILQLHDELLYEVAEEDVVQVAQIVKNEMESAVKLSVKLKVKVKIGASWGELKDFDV
CCC1(C)CC(=O)NC1=O (stereo not drawn): 102%
CC(=O)OCC(=O)[C@@]1(O)CC[C@H]2[C@@H]3CCC4=CC(=O)CC[C@]4(C)[C@@]3(F)[C@@H](O)C[C@@]21C: 100%
C[C@@H](CN1CC(=O)NC(=O)C1)N1CC(=O)NC(=O)C1: 93.3%
C=C1C(=O)O[C@H]2[C@H]1CC/C(C)=C/CC[C@@]1(C)O[C@@H]21: 130%
CCCCCCCCOc1ccccc1C(=O)Nc1ccc(C(=O)OCC[N+](C)(CC)CC)cc1: 98.8%
O=C1CCC(N2C(=O)c3ccccc3C2=O)C(=O)N1 (stereo not drawn): 99.5% and 76.6%
N=C(N)NCCC[C@H](N)C(=O)O: 94.1%
Cc1cc(NC2CCCCC2)nc(-n2nc(C)cc2C)n1: 101%
C=CC(=O)Nc1cc2c(Nc3ccc(F)c(Cl)c3)ncnc2cc1C#CC(C)(C)N1CCN(C)CC1: 105% and 111% and 109%
CC(=O)NS(=O)(=O)c1ccc(N)cc1: 100%
COc1ccc(-c2coc3cc(O)cc(O)c3c2=O)cc1: 77.8%
CC(C)c1nc(CN(C)C(=O)N[C@H](C(=O)N[C@@H](Cc2ccccc2)C[C@H](O)[C@H](Cc2ccccc2)NC(=O)OCc2cncs2)C(C)C)cs1: 103%
O=C(O)[C@]1(Cc2cccc(Nc3nccs3)n2)CC[C@@H](Oc2cccc(Cl)c2F)CC1: 68.6%
O=C(NS(=O)(=O)c1ccc(Br)s1)c1ccc(Cl)cc1Cl: 77.4%

Study 4 — action: inhibitor; quantity: inhibition
Structure (SMILES): Cc1nc(Nc2ncc(C(=O)Nc3c(C)cccc3Cl)s2)cc(N2CCN(CCO)CC2)n1
Serine/threonine-protein kinase Chk1 (CHEK1, Homo sapiens, UniProt O14757); 1 µM: < 50%
Tyrosine-protein kinase receptor TYRO3 (TYRO3, Homo sapiens, UniProt Q06418); 10 µM: 91%
LIM domain kinase 1 (LIMK1, Homo sapiens, UniProt P53667); 10 µM: 99%
Glycogen synthase kinase-3 beta (GSK3B, Homo sapiens, UniProt P49841); 10 µM: < 50%
Serine/threonine-protein kinase 32C (STK32C, Homo sapiens, UniProt Q86UX6); 10 µM: < 50%
Calcium/calmodulin-dependent protein kinase type 1 (CAMK1, Homo sapiens, UniProt Q14012); 10 µM: < 50%
Mitogen-activated protein kinase 7 (MAPK7, Homo sapiens, UniProt Q13164); 10 µM: < 50%
Activin receptor type-2B (ACVR2B, Homo sapiens, UniProt Q13705); 10 µM: 96%
5'-AMP-activated protein kinase catalytic subunit alpha-2 (PRKAA2, Homo sapiens, UniProt P54646); 10 µM: < 50%
Serine/threonine-protein kinase 17A (STK17A, Homo sapiens, UniProt Q9UEE5); 10 µM: < 50%
Tyrosine-protein kinase SYK (SYK, Homo sapiens, UniProt P43405); 10 µM: 91%
Bone morphogenetic protein receptor type-2 (BMPR2, Homo sapiens, UniProt Q13873); 1 µM: < 50%
